Published values from different studies.
Each numbered part is a random draw from the data of one study; scales do not carry over between parts. Positions count from the first letter of the parent shown.

Study 1
Target: RING finger protein unkempt homolog, zinc fingers 1-6, GST-SBP tag (UNK, Homo sapiens, UniProt Q9C0B0, residues 30-357)
Method: RNA Bind-n-Seq
Form: RNA
Medium: in vitro
Concentration: not given
Setting: RNA with constant flanks, human-mouse chimeric sites, ends assumed
Reference: input RNA pool
Direction: higher = stronger binding
Quantity: bound/input enrichment
Construct (chain): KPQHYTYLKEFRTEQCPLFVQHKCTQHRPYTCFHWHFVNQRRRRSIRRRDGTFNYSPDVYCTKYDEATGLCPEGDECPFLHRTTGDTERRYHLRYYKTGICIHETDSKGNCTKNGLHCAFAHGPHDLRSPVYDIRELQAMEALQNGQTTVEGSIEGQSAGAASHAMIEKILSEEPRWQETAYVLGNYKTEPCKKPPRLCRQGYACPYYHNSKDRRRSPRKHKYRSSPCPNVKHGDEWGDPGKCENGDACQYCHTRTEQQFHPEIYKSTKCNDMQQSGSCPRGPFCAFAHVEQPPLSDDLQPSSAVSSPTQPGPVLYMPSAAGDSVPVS
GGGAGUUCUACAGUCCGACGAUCAACAGAUUGUCUUUAAGCAUUCCAAGCGAGAAUGCUGGGGUGAUCAUUGUUGCCCAUGUGCCUUCUGUAAUAGAUGGAAUGCUGUUCCAUGUUACAUCUUUCCUUCAUUGCAUAUUUGUUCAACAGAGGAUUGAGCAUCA: 0.118 ratio
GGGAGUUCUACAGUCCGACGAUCAAUUUCCUGUCAUACUUUUUAGACAUUCACAUCAGACGCCUUACUACCCUGGCCACAUUCUAGGUUUGUGUUAUUUCUCAGCUAUGGAUAUGAUCAAAGAGUGAAAAUGCUUAACUAAUGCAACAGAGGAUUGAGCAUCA: 0.547 ratio
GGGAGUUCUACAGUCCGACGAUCCACAGAGGAGAUCUGCUGUUCCUCACGAAUUUCCGGGAAGACCCAAUCAGAGCUGGUGAAAUAGUUGUUUUUAAAGUUGAAGGAAGAGACAUUCCGAUAGUUCACAGAGUAAUCAAGGUUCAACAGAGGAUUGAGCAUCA: 2.04 ratio
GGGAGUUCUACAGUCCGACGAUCGGCCUGGGACCGUCCUGGGCUAGUACAAUAGCGGCAGGUGGAGGCUCGAGAGGAAAGUUUGUUAGUGGAGGCAGUGGUAGAGGCCGUCAUGUACGGUCCUUUACUCGAUAGAUGUGUUCUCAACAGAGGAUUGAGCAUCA: 0.698 ratio
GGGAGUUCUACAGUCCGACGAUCCAGCCUCAGAGCCCAGACUUCCUGGAUAUUACCAACCCUAAAGCGGUAUUAGAAAAUGCACUUAGGAACUUCGCCUGUCUGACGACUGGAGAUGUGAUUGCUAUCAACUACAAUGAGAAGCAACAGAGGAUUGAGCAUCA: 0.661 ratio
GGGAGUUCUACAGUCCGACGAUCCAGUCCCGCGACAGCGUUGCAGGACGAUGUGAACAAAAACUCAAAGCGGACCCUCUAUUGUAGUUCUUGAUUCUCGAAAUGUGCUAUUAUUGUUUGUCUUUUUUUUUAAAAGAAAAGAGACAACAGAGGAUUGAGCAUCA: 0.215 ratio
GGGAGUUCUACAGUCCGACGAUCGUACUGCAGCAGCAGGGAAAACUGCAGGAAGCUCUGAUGCAUUAUAAAGAAGCCAUACGAAUCAGUCCUACCUUUGCUGAUGCCUACUCCAAUAUGGGAAACACUCUAAAGGAGAUGCAGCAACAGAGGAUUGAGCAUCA: 0.165 ratio
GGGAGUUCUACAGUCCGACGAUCUGACAAGGGCACUGCAGGGCCAUGCCUUUCCUUGACAUCCAGAAAAGGCUGGGCAUCAGCCUGGACCGGCACUUUAUGUUCCUAAGCGCAGAACAGCCCUAUAAGAACGCCGCUCGGUGCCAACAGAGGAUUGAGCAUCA: 0.0433 ratio
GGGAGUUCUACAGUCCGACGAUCCAGUCCCGCGACAGCGUUGCAGGACGAUGUGAACAAAAACUCAAAGCGGACCCUCUACUGUAGUUGAUGAUUCUCGAAAUGUGCUAUUAUUGUUUGUCUUUUUUUUUUUUUUUUUAAAGACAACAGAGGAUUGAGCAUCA: 0.891 ratio
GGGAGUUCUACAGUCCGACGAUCUACAUUUUAUUGUUGAGUUUCAUUUUCAUAUAUUCUUGUAGUGUCUGCUUGCCUGUGACUUCUGGUAAAAUAAAAUAUUAAAAUUACAAUAUUUUAGCAUGGUAUUUAACAUUUUCUAAACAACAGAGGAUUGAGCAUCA: 1.34 ratio
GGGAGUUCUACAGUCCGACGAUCAUGGAGAAGGAUUCUCUGCCCCGCUUUGUGCGCUCUGAAUUUUAUAAGGAGUUAAUCAAGUAGUAAUCUGGUCAGGCUUCCAAAAGUUGCCCUGUGAGUUGAGUUACAUCCUUUGUAGCACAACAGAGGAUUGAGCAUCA: 0.314 ratio

Study 2
Target: HLF, bZIP domain (human)
Method: DHFR protein complementation
Medium: yeast
Setting: single substitutions, most at no-binding floor
Reference: wild-type JUN-FOS pair
Direction: higher = stronger binding
Quantity: binding fitness
Starting sequence: JUN, bZIP domain (human); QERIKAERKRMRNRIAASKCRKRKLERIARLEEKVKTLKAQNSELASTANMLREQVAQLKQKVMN; partner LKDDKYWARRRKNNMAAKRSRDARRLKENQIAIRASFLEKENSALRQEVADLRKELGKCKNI
E33S: -1.34 natural log
L45S: -1.55 natural log
L45D: -1.5 natural log
K39M: -1.22 natural log
A49F: -1.34 natural log
A46G: -1.47 natural log
R53W: -1.37 natural log
T37H: -1.48 natural log
T37G: -1.41 natural log
L31Y: -1.22 natural log
K36H: -1.45 natural log
N42M: -1.49 natural log
R30E: -1.37 natural log
S47A: -1.25 natural log
L31N: -1.49 natural log
A40F: -1.43 natural log

Study 3
Target: Interferon regulatory factor 7, full length, phosphomimetic (IRF7, Homo sapiens, UniProt Q92985, residues 1-503, S101K/S471D/S472D/S475D/S476D/S477D/S483D/S484D/S487D)
Sequence of UniProt Q92985 (whole entry, unmodified, looked up): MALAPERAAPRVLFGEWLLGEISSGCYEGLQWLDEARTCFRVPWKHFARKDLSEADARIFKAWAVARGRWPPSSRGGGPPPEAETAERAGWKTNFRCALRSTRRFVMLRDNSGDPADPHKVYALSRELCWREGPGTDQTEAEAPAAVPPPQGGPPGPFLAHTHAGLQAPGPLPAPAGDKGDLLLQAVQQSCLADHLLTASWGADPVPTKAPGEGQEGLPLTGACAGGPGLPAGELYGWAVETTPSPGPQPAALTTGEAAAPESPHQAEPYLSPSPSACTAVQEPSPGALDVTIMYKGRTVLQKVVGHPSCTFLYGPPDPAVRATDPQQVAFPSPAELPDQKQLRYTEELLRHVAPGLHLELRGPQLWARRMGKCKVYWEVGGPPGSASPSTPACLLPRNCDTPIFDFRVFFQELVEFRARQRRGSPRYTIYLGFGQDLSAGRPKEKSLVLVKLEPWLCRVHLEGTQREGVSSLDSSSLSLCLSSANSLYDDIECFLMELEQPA
Method: protein-binding microarray
Form: double-stranded DNA, one strand shown
Medium: in vitro
Concentration: 250 nM
Setting: 60-bp whole probe
Together with: salmon DNA 0.4 mg/ml
Reference: random background probes
Direction: higher = stronger binding
Quantity: log fluorescence
Constant ends, left off below: GCCTAGCAC … GTCTTGATTCGCTTGACGCTGCTG
GACGGTATCCTTTTCCTGACGTGCTAG: 0.969 z-score
TTAGATTTAGGGACTGGATTAGTGCTA: -0.0731 z-score
GACGGTTTCCTCATCCTGACGTGCTAG: 1.71 z-score
TAGACTCTGTGCTTTCCTCGTGTGCTA: 0.254 z-score
GACGGTCTCCTACTGCTGTCGTGCTAG: -0.202 z-score
GACGGACTGGGGTATCGGTACGTGCTA: -0.63 z-score
CTAGATTCCAGTTTCGATTAGTGCTAG: 10.2 z-score
TTAGGACTGGACCATCGGTTAGTGCTA: -0.36 z-score
TTAGGTTTCCGGTATCGGTTAGTGCTA: 3.22 z-score
TCAATTTTGAGACTCATACTGTGCTAG: 0.275 z-score
CACTCTTTCCTCACCATACTGTGCTAG: 2.19 z-score
GACGTTTTCGGTTCCGGGACGTGCTAG: 5.47 z-score
CACGTTGCTCAAGGGCTTGAGTGCTAG: 0.928 z-score
GACGGTATCCTATTGCTGACGTGCTAG: 0.644 z-score
TCATCTCCCAAGTCTTGTACTGTGCTA: 0.594 z-score
CCCTGAGGAATCCTGCAGCCGTGCTAG: -0.712 z-score
TTAGGTTTCCCTCTCCTTTAGTGCTAG: 1.54 z-score
GTAGGTTTCGGTTTCGGTTAGTGCTAG: 15.2 z-score
CTAATTTTCATTTTCCAAATGTGCTAG: 3.47 z-score
TCAACTTTATGTAGGAAACTGTGCTAG: 0.0909 z-score
TATGTTCCTTTAGCACTTTGGTGCTAG: 0.843 z-score

Study 4
Target: Histone acetyltransferase KAT6A, winged helix 1, GST fusion (KAT6A, Homo sapiens, UniProt Q92794, residues 1-85)
Method: protein binding microarray
Form: double-stranded DNA, one strand shown
Medium: in vitro
Concentration: not given
Setting: 8-mer, flanks averaged, mean of 2 arrays, mostly near background
Reference: not given
Direction: higher = stronger binding
Quantity: E-score
Residues (chain): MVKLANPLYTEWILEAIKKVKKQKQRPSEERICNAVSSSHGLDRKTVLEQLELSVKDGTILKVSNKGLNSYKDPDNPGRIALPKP
ACCGGGAG: 0.229
ACTGCTCA: -0.216
CGCGCAAC: 0.416
ACGCTAAG: 0.113
ATTTGTGG: -0.152
CTAGGAGC: -0.0414
CAGTGCGA: 0.00808
AGAAACAA: -0.16
AGATGGCC: -0.0468
CCGCTTAA: 0.212
CTGGATTC: -0.186
CAAAATTG: -0.229
AACCGTAC: 0.207
ACGTTTTG: -0.322
AATAGGTA: -0.132
GGGCGGCA: 0.379
GTACCTTA: 0.1
CGGCTTTC: 0.34
GGTAACCA: 0.0236
CACGGCCA: 0.221
CTATGTAC: -0.118
CATCCGCA: 0.0467
CCGCCAGA: -0.0269
AATACACG: 0.0475
CCATTGGG: -0.131

Study 5
Target: ABI1, truncated, D143A, DHFR fusion (Arabidopsis thaliana)
Method: DHFR PCA, deep sequencing
Medium: yeast
Setting: methotrexate growth selection, single substitutions
Together with: (+)-ABA 58 µM
Reference: wild-type fitted maximum
Direction: higher = stronger binding
Quantity: relative binding score
Starting sequence: PYL1, truncated, DHFR fusion (Arabidopsis thaliana); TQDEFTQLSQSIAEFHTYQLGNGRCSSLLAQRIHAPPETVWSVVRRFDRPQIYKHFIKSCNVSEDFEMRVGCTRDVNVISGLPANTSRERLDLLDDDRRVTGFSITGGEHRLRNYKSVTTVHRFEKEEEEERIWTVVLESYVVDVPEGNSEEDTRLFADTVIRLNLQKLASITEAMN
V43T: 63%
H110N: 94.4%
L164W: 74.7%
R45A: 41.8%
L138W: -0.0675%
E174P: 42.4%
L93C: 87.5%
F47A: -4.35%
R90L: 33.7%
R123F: 66.6%
G102V: 14.5%
R45F: -9.34%
S140H: -1.14%
R113H: 90.5%
V76L: 75.4%
L94Q: 31.7%
S11C: 88.4%

Study 6
Target: CCNB1, cyclin fold, Cln2 fusion (human)
Method: yeast growth competition, sequencing
Medium: yeast
Setting: weak parent motif
Reference: not given
Direction: higher = stronger binding
Quantity: normalised enrichment score
Starting sequence: CDKN1C docking peptide (human); TSACRSLFGPVDH
ASACRSLFGPVDH [T1A]: 0.543
TSACRSAFGPVDH [L7A]: 0.0239
TSACRSLFGPADH [V11A]: 0.563
TSACRSLFAPVDH [G9A]: 0.534
TSAARSLFGPVDH [C4A]: 0.199
TSACKSLLGPVDH [R5K F8L]: 0.101
TSACRALFGPVDH [S6A]: 0.447
